{"data": "Experimental data from different studies", "note": "Compare with care: the assays were run in different laboratories. ± marks the error that the study gave.", "UniProt P06276, sequence (whole entry, looked up)": "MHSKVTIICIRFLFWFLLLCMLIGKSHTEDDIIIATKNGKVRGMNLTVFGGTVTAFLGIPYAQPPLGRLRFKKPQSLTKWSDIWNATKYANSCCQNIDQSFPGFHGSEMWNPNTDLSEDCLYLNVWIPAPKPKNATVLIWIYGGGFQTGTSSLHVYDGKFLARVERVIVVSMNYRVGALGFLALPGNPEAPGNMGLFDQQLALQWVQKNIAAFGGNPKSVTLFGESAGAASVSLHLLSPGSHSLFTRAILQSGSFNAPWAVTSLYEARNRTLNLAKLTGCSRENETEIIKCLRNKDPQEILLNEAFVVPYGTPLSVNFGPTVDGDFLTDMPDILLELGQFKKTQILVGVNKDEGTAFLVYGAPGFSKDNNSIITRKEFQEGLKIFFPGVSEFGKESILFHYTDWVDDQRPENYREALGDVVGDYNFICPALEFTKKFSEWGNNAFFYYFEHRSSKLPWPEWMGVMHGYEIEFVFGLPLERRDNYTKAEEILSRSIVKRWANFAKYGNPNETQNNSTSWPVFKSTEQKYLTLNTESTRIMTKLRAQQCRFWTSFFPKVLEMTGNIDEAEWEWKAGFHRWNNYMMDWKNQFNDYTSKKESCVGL", "UniProt P07948, sequence (whole entry, looked up)": "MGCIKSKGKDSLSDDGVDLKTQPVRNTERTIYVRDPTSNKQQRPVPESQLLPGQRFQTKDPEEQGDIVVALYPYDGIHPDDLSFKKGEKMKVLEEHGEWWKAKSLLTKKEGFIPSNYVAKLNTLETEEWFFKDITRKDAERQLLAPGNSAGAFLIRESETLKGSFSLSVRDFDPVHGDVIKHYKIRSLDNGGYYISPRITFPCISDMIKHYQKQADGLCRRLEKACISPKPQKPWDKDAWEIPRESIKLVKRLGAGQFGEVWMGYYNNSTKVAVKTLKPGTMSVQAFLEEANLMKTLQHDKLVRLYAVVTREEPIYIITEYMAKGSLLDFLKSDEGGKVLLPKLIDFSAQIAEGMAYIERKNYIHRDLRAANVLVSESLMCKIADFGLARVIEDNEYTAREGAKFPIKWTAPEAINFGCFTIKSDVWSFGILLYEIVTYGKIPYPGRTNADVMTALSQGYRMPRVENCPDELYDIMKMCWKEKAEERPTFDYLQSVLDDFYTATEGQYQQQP", "UniProt P16591, sequence (whole entry, looked up)": "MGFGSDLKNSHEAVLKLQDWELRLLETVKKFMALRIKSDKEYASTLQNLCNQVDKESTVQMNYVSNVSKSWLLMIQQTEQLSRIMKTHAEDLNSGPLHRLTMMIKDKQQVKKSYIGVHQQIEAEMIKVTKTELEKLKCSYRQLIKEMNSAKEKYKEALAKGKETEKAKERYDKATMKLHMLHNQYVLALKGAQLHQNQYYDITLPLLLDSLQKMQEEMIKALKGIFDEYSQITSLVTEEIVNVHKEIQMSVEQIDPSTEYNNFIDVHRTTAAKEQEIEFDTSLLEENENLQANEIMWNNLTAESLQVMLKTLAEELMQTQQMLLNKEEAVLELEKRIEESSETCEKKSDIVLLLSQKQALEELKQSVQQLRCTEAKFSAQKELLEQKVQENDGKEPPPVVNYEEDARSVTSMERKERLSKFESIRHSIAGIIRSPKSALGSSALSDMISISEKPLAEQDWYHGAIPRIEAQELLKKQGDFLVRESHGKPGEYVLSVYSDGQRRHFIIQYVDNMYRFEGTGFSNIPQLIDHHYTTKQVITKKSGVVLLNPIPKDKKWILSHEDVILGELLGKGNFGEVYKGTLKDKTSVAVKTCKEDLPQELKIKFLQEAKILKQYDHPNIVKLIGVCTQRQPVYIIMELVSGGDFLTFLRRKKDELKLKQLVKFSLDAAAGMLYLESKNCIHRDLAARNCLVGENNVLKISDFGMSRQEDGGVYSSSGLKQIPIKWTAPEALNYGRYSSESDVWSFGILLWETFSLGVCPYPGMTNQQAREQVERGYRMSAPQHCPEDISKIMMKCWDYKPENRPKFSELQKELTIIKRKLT", "UniProt P35367, sequence (whole entry, looked up)": "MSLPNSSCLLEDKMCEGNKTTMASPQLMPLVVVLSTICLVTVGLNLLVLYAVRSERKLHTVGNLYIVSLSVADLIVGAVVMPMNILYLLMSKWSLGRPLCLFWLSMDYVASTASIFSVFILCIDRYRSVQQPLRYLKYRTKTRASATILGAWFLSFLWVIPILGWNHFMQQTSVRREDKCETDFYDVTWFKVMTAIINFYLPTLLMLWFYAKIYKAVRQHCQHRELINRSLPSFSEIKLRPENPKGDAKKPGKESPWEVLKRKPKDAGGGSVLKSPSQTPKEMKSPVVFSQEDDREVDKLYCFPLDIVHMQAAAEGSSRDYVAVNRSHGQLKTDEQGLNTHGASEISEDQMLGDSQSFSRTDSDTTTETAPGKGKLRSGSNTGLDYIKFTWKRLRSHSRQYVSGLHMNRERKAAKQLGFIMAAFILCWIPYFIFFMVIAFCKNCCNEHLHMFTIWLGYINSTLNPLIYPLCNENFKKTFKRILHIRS", "UniProt P32247, sequence (whole entry, looked up)": "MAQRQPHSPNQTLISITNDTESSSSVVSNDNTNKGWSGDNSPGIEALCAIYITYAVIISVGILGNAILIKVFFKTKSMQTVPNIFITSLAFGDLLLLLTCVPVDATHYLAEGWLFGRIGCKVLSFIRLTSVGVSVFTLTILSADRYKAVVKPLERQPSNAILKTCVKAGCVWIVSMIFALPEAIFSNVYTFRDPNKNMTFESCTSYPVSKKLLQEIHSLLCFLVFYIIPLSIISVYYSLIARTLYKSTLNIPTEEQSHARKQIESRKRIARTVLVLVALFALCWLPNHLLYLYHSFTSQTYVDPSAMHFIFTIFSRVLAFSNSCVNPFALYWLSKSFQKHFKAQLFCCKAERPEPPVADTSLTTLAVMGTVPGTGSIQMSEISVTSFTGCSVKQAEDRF", "UniProt Q08345, sequence (whole entry, looked up)": "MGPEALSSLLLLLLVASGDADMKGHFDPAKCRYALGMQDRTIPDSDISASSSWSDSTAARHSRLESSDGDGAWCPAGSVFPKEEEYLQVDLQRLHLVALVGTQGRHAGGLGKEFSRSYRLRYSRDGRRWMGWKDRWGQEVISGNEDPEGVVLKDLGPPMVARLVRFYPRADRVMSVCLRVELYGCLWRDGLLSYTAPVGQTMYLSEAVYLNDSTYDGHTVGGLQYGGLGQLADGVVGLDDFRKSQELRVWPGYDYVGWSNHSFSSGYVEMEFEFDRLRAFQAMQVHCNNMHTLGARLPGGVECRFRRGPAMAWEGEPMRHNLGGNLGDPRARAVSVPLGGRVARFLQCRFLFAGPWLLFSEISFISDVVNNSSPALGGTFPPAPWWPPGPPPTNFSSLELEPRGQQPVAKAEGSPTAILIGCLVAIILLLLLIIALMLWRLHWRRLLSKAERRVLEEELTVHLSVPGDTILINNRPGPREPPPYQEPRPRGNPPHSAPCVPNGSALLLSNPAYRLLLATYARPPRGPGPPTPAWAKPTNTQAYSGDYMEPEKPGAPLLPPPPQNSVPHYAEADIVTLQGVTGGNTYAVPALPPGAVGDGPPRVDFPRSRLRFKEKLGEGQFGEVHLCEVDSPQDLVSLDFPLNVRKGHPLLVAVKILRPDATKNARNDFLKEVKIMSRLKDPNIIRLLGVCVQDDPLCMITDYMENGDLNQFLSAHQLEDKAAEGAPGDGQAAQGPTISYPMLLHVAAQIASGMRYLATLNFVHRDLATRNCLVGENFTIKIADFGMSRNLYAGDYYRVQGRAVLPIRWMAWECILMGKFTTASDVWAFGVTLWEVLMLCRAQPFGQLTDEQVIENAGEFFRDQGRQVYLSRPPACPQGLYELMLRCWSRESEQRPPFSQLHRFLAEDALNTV", "UniProt P28221, sequence (whole entry, looked up)": "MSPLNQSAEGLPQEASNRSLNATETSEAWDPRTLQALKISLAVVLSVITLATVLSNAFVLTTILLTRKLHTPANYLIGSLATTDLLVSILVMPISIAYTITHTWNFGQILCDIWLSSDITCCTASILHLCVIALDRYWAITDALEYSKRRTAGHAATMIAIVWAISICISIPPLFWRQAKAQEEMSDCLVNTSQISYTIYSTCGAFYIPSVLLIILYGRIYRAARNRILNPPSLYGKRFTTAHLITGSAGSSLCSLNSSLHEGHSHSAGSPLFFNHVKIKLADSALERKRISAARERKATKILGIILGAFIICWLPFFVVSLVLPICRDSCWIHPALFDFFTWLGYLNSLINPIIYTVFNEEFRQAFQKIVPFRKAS", "UniProt P31751, sequence (whole entry, looked up)": "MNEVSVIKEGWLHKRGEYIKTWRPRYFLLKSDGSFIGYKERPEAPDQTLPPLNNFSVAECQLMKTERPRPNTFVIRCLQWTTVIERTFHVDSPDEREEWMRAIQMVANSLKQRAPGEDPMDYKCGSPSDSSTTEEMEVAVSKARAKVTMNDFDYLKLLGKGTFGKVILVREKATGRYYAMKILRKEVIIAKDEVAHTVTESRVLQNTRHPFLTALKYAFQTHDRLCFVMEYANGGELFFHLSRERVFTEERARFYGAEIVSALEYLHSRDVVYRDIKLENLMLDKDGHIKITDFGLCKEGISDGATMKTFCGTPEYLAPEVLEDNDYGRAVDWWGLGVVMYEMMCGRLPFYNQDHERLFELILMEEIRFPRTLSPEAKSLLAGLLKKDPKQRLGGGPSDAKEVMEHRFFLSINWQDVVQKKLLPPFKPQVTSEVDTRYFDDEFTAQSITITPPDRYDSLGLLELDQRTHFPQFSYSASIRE", "UniProt Q15831, sequence (whole entry, looked up)": "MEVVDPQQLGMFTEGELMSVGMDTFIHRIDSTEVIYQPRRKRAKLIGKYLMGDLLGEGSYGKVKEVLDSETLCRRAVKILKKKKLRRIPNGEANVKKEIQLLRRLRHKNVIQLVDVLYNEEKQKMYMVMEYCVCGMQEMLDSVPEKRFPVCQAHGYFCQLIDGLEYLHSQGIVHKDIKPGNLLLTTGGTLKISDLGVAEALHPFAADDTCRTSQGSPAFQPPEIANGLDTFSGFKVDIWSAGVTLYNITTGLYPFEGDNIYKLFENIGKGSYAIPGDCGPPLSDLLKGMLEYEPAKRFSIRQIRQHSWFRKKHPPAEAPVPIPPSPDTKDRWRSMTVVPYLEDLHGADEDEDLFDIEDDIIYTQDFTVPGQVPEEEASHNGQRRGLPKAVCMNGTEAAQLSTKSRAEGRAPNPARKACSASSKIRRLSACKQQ"}
{"Compound": "CS(C)(=O)=Nc1ccc(-c2ccc(-c3nc4cc(O[C@@H]5CO[C@H]6[C@@H]5OC[C@H]6O)[nH]c4cc3F)cc2)cc1", "tested on": "STK11 (Homo sapiens, UniProt Q15831)", "assay": "enzyme activity, inhibitor", "setting": "10 µM", "measurement": "inhibition", "result": "33%"}
{"Compound": "O=C(O)c1ccccc1/C=N/Nc1nc(-c2ccccc2Cl)cs1", "tested on": "AKT2 (Homo sapiens, UniProt P31751)", "assay": "kinase activity", "setting": "1 µM, mean", "measurement": "inhibition", "result": "0.19%"}
{"Compound": "CC[C@H](C)[C@H](NC(=O)[C@H](CO)NC(=O)[C@H](Cc1ccc(O)cc1)NC(=O)[C@H](Cc1ccc(O)cc1)NC(=O)[C@H](CC(N)=O)NC(=O)CNC(=O)[C@H](CO)NC(=O)[C@H](Cc1ccc(O)cc1)NC(=O)[C@H](CO)NC(=O)[C@H](CO)NC(=O)[C@H](CC(N)=O)NC(=O)COCCOCCNC(=O)CN1CCN(CC(=O)O)CCN(CC(=O)O)CCN(CC(=O)O)CC1)C(=O)N[C@@H](CC(C)C)C(N)=O [copper-64 labelled]", "assay": "dynamic PET", "system": "tamoxifen-induced PDAC mouse model, pancreas", "setting": "0.9 min, CLDN4-expressing tumours", "measurement": "maximum pancreas uptake", "result": "19.7 %IA/cc"}
{"Compound": "Cc1sc2c(c1C)C(c1ccc(Cl)cc1)=NC(CC(=O)OC(C)(C)C)c1nnc(C)n1-2 (stereo not shown)", "tested on": "CXCR2 (Homo sapiens, UniProt P25025)", "assay": "specific binding, agonist radioligand binding", "setting": "1 µM", "measurement": "inhibition", "result": "-5%"}
{"Compound": "O=C1NC(=O)c2c1c1cc(F)c[n+]3c1c1c2c2cc(O)ccc2[n]1[Ru-4]312([N]=C=S)[S+]3CC[S+]1CC[S+]2CC3 (stereo not shown)", "tested on": "FER (Homo sapiens, UniProt P16591)", "assay": "enzyme activity", "setting": "100 nM, human enzyme, together with: 10 µM ATP", "scale": "relative to: untreated", "measurement": "remaining activity", "result": "56%"}
{"Compound": "CN[C@@H]1[C@H](O)[C@H](NC)[C@H]2O[C@]3(O)[C@H](O[C@@H]2[C@H]1O)O[C@H](C)C[C@H]3NC(=O)Cc1ccc(Cl)cn1", "tested on": "HRH1 (Homo sapiens, UniProt P35367)", "assay": "ligand displacement, radioligand", "setting": "10 µM", "measurement": "inhibition", "result": "-3%"}
{"Compound": "N[C@H](C(=O)N1CCCC1)C1CCN(c2nccc3c(-c4ncc(Cl)cc4Cl)cccc23)CC1", "tested on": "PADI2 (Homo sapiens, UniProt Q9Y2J8)", "assay": "enzyme activity, GDH-coupled", "setting": "0.01573 µM, together with: 1.5 mM Ca2+ (high)", "measurement": "inhibition", "result": "2.45%"}
{"Compound": "CC(C)[C@H]1NC(=O)C[C@H]2/C=C/CCSSC[C@@H](NC1=O)C(=O)N[C@H](Cc1cccc3ccccc13)C(=O)NCC(=O)O2", "tested on": "DDR1 (Homo sapiens, UniProt Q08345)", "assay": "enzyme activity, inhibitor", "setting": "10 µM", "measurement": "inhibition", "result": "-5.1%"}
{"Compound": "CCc1nnc(-c2c(OC)cc(-c3cnc4cc(-c5cnn(C)c5)ccn34)cc2OC)o1", "tested on": "HTR1A (Homo sapiens, UniProt P08908)", "assay": "agonist radioligand, radioligand binding", "setting": "10 µM, SafetyScreen44 5-HT1A", "measurement": "inhibition", "result": "1%"}
{"Compound": "CC(C)(C)C(=O)OCOP(=O)(OCOC(=O)C(C)(C)C)C1CCCN(O)C1=O (stereo not shown)", "tested on": "MOLT-4", "measurement": "GI50", "result": "0.431 µM"}
{"Compound": "CN(/N=C/c1ccccc1C(=O)O)c1nc(-c2ccccc2Cl)cs1", "tested on": "LYN (Homo sapiens, UniProt P07948)", "assay": "enzyme activity, inhibitor", "setting": "1 µM", "measurement": "inhibition", "result": "-6.6%"}
{"Compound": "CCCCNC(=O)c1ccc2nc(CC)c(N(C)Cc3ccc(OC)cc3)n2c1", "tested on": "ACHE (Homo sapiens, UniProt P22303)", "assay": "enzyme activity, inhibitor", "system": "SH-SY5Y", "setting": "1.5 × IC50", "measurement": "inhibition", "result": "60%"}
{"Compound": "CC(NC(=O)c1ccccc1F)c1nnc2ccccn12 (stereo not shown)", "tested on": "Cholinesterase (BCHE, Homo sapiens, UniProt P06276)", "assay": "enzyme activity, inhibitor, Ellman", "setting": "10 µM", "measurement": "inhibition", "result": "35.7%"}
{"Compound": "O=C1NC2(CC2)COc2ncc(F)cc2[C@H]2COCCN2c2ccn3ncc1c3n2", "system": "Sprague-Dawley rat, female, thymus", "setting": "oral, 2.5 mg/kg/day, 4 weeks, end of treatment", "measurement": "organ-to-brain weight ratio", "result": "31.4 ± 4.98%"}
{"Compound": "COc1ccccc1-c1n[nH]c2nc(NC3CCN(C(=O)Cc4ccc(F)cc4F)CC3)ncc12", "assay": "bead binding, competition bead pull-down, item: LINJ.35.1070", "system": "Leishmania donovani axenic amastigote extract", "setting": "10 µM", "scale": "relative to: vehicle", "measurement": "relative abundance", "result": 0.86}
{"Compound": "CCCCCCCCCCCCCCCCCC(=O)NC[C@H]1CC[C@H](C(=O)N[C@@H](CCC(=O)NCCCOCCOCCOCCCNC(=O)COCC(=O)N[C@@H](Cc2ccc(O)cc2)C(=O)NC(C)(Cc2ccccc2)C(=O)N[C@@H](CC(C)C)C(=O)N[C@@H](CCCC)C(=O)N[C@@H](CCCNC(=N)N)C(=O)N2CCC[C@H]2C(=O)N[C@@H](CCCNC(=N)NC)C(=O)N[C@@H](CC(N)=O)C(N)=O)C(=O)O)CC1 (stereo partly shown)", "tested on": "BRS3 (Homo sapiens, UniProt P32247)", "assay": "antagonist, DiscoverX GPCR panel", "setting": "1 µM", "measurement": "inhibition", "result": "64%"}
{"Compound": "COc1ccc(F)cc1S(=O)(=O)Nc1cnc2c(c1)C(=O)NCCO2", "tested on": "AMPA glutamate receptor", "assay": "radioligand binding", "setting": "10 µM", "measurement": "inhibition", "result": "0%"}
{"Compound": "COc1ccccc1N1CCN(CCCCN2CCCc3ccccc3C2=O)CC1", "tested on": "HTR1D (Homo sapiens, UniProt P28221)", "assay": "radioligand binding", "setting": "concentration not given, together with: [3H]5-CT", "measurement": "inhibition", "result": "91.5%"}
{"Compound": "C[C@H](NCc1ccc(-c2ccc(C(F)(F)F)cc2)cc1)C(N)=O", "tested on": "STK32C (Homo sapiens, UniProt Q86UX6)", "assay": "cell-free assay, competition with immobilised ligand", "setting": "1 µM", "measurement": "inhibition", "result": "0%"}
{"Compound": "Cc1ccc2c(n1)c(-c1cccc(S(C)(=O)=O)c1)c(C)n2C/C(F)=C/CN", "tested on": "CCKBR (Homo sapiens, UniProt P32239)", "assay": "ligand displacement, radioligand", "setting": "10 µM", "measurement": "inhibition", "result": "3%"}
{"Compound": "COc1ccccc1-c1n[nH]c2nc(N[C@H]3CC[C@H](NS(=O)(=O)CC(C)C)CC3)ncc12", "assay": "bead binding, competition bead pull-down, item: LINJ.34.3370", "system": "Leishmania donovani extract", "setting": "10 µM", "scale": "relative to: vehicle", "measurement": "relative abundance", "result": 0.8}
{"Compound": "CN(C)[C@H]1C[C@@]23CC[C@@]4(O2)C(=CC[C@]2(C)[C@@H](c5ccc6ccncc6c5)CC[C@H]24)C=C3[C@@H](O)[C@@H]1O", "tested on": "IKBKE (Homo sapiens, UniProt Q14164)", "assay": "ATP probe labelling, inhibitor, KiNativ profiling", "setting": "1 µM", "measurement": "inhibition", "result": "-15.4%"}
{"note": "A few entries again:"}
{"Compound": "COc1ccccc1-c1n[nH]c2nc(NC3CCN(C(=O)Cc4ccc(F)cc4F)CC3)ncc12", "assay": "bead binding, competition bead pull-down, item: LINJ.35.1070", "system": "Leishmania donovani axenic amastigote extract", "setting": "10 µM", "scale": "relative to: vehicle", "measurement": "relative abundance", "result": 0.86}
{"Compound": "CCCCCCCCCCCCCCCCCC(=O)NC[C@H]1CC[C@H](C(=O)N[C@@H](CCC(=O)NCCCOCCOCCOCCCNC(=O)COCC(=O)N[C@@H](Cc2ccc(O)cc2)C(=O)NC(C)(Cc2ccccc2)C(=O)N[C@@H](CC(C)C)C(=O)N[C@@H](CCCC)C(=O)N[C@@H](CCCNC(=N)N)C(=O)N2CCC[C@H]2C(=O)N[C@@H](CCCNC(=N)NC)C(=O)N[C@@H](CC(N)=O)C(N)=O)C(=O)O)CC1 (stereo partly shown)", "tested on": "BRS3 (Homo sapiens, UniProt P32247)", "assay": "antagonist, DiscoverX GPCR panel", "setting": "1 µM", "measurement": "inhibition", "result": "64%"}
{"Compound": "COc1ccc(F)cc1S(=O)(=O)Nc1cnc2c(c1)C(=O)NCCO2", "tested on": "AMPA glutamate receptor", "assay": "radioligand binding", "setting": "10 µM", "measurement": "inhibition", "result": "0%"}
{"Compound": "COc1ccccc1N1CCN(CCCCN2CCCc3ccccc3C2=O)CC1", "tested on": "HTR1D (Homo sapiens, UniProt P28221)", "assay": "radioligand binding", "setting": "concentration not given, together with: [3H]5-CT", "measurement": "inhibition", "result": "91.5%"}
